Published values gathered from unrelated publications.
Protocols differ between the studies behind these lines. ± gives the spread as reported.
Cell line: PC-3

| Structure (SMILES) | test | setting | IC50 |
| --- | --- | --- | --- |
| Cc1ccc(NC(=O)N/N=C2\CC3(CCN(C)CC3)Oc3ccccc32)cc1 | cell growth or viability, MTT | 48 h | 9.71 µM |
| C=CCc1ccc(OCc2nnc(SCC(=O)Nc3ccc(Cl)cc3Cl)o2)c(OC)c1 | cell growth or viability, MTT | 72 h | 30 µM |
| CC(=O)O[C@@H]1CC[C@@]2(C)[C@@H](CC[C@]3(C)[C@@H]2C(=O)C=C2[C@@H]4[C@@H](C)[C@H](C)CC[C@]4(C)CC[C@]23C)[C@@]1(C)C(=O)NCCNC(=O)CCCCCCCCCC[P+](c1ccccc1)(c1ccccc1)c1ccccc1 | cell growth or viability, MTT | 48 h | 2.45 µM |
| C[C@]12CC/C(=N\O)C=C1CCC1C2CC[C@]2(C)/C(=C/c3ccccn3)CCC12 (some centres unmarked) | cell growth or viability, MTT | 72 h | > 100 µM |
| CCCCCCCC(=O)NCCNC(=O)[C@]1(C)[C@@H]2CC[C@]3(C)[C@H](C(=O)C=C4[C@@H]5[C@@H](C)[C@H](C)CC[C@]5(C)CC[C@]43C)[C@@]2(C)CC[C@H]1OC(C)=O | cell growth or viability, MTT | 48 h | 12.3 µM |
| C[C@]1([N+](=O)[O-])C(=O)c2ccccc2O[C@@H]1CC(=O)O | cell growth or viability, SRB | 96 h | > 50 µM |
| C=CCc1cc(OC)c(OC(C)=O)c(OC)c1 | MTT | 24 h | > 50 µM |
| CC(=O)O[C@@H]1CC[C@@]2(C)[C@@H](CC[C@]3(C)[C@@H]2C(=O)C=C2[C@@H]4[C@@H](C)[C@H](C)CC[C@]4(C)CC[C@]23C)[C@@]1(C)C(=O)NCCNC(=O)OC(C)(C)C | cell growth or viability, MTT | 48 h | > 30 µM |
| O=C([O][Ti+2][O]C(=O)c1ccc([P+]([Au-][Cl])(c2ccccc2)c2ccccc2)cc1)c1ccc([P+]([Au-][Cl])(c2ccccc2)c2ccccc2)cc1.c1cc[cH-]c1.c1cc[cH-]c1 | cell viability, XTT | 72 h | 37.7 µM |
| CC(C)=CCC1=C([O-])C(=O)c2ccccc2C1=O.CC(C)=CCC1=C([O-])C(=O)c2ccccc2C1=O.[Cu+2].c1ccc(-c2ccnc3c2ccc2c(-c4ccccc4)ccnc23)cc1 | cell viability, MTT | 24 h | 1.2 ± 0.1 µM |
| CCCCOC(=O)C[C@H]1Oc2ccccc2C(=O)[C@]1(C)[N+](=O)[O-] | cell growth or viability, SRB | 96 h | > 50 µM |
| CCN(CC)CCN1C(=O)c2ccc3c4cccc5cccc(c6ccc(c2c36)C1=O)c54 | cell growth or viability, SRB | 72 h | 5.1 µM |
| N.N.O=C(CCCc1ccccc1)[O][Pt]([Cl])([Cl])[O]C(=O)CCCc1ccccc1 | cell growth or viability |  | 0.41 µM |
| FC(F)(F)Sc1ccc(-c2noc(-c3cccs3)c2C(F)(F)F)cc1 | cell growth or viability, MTT | 48 h | 33.2 µM |
| COC(=O)C[C@H]1Oc2ccccc2C(=O)[C@]1(C)[N+](=O)[O-] | cell growth or viability, SRB | 96 h | > 50 µM |
| CCOC(=O)CS/C(Nc1ccccc1)=C(\C#N)C(=O)Nc1nnc(NC(=O)c2ccccc2)s1 | cell growth or viability, MTT | 48 h | 71.9 µM |
| CCCCCCCCC=CCCCCCCCC(=O)OC(COC(=O)Cc1c(C)n(C(=O)c2ccc(Cl)cc2)c2ccc(OC)cc12)COP(=O)([O-])OCC[N+](C)(C)C (centres unmarked) | cell growth or viability, SRB | 72 h | 33.5 µM |
| CC(=O)O[C@@H]1CC[C@@]2(C)[C@@H](CC[C@]3(C)[C@@H]2C(=O)C=C2[C@@H]4[C@@H](C)[C@H](C)CC[C@]4(C)CC[C@]23C)[C@@]1(C)C(=O)NCCNC(=O)CCCC[P+](c1ccccc1)(c1ccccc1)c1ccccc1 | cell growth or viability, MTT | 48 h | 10.2 µM |

| Structure (SMILES) | test | setting | IC50 |
| --- | --- | --- | --- |
| CCCC(CCC)C(=O)[O][Pt]([Cl])([Cl])[O]C(C)=O.N.N | cell growth or viability |  | 7.32 µM |
| COC(=O)C(NC(=O)CNC(=O)CNC(=O)COc1ccc2c(C)cc(=O)oc2c1)c1ccccc1 (stereo in doubt) | cell growth or viability, MTT |  | 147 µM |
| COc1ccc(NC(=O)N/N=C2\CC3(CCN(C)CC3)Oc3ccccc32)cc1 | cell growth or viability, MTT | 48 h | 3.3 µM |
| C[C@H]1[C@H](C)CC[C@]2(C)CC[C@]3(C)C(=CC(=O)[C@@H]4[C@@]5(C)CC[C@@H](O)[C@](C)(C(=O)NCCNC(=O)C6CC6)[C@@H]5CC[C@]43C)[C@H]12 | cell growth or viability, MTT | 48 h | 23.6 µM |
| C[C@]12CC/C(=N\OCCN3CCOCC3)C=C1CCC1C2CC[C@]2(C)/C(=C/c3ccccn3)CCC12 (some centres unmarked) | cell growth or viability, MTT | 72 h | > 100 µM |
| CC(=O)O[C@@H]1CC[C@@]2(C)[C@@H](CC[C@]3(C)[C@@H]2C(=O)C=C2[C@@H]4[C@@H](C)[C@H](C)CC[C@]4(C)CC[C@]23C)[C@@]1(C)C(=O)NCCNC(=O)C1CC1 | cell growth or viability, MTT | 48 h | 6.79 µM |
| C=CC(OC(C)=O)c1cc(OC)c(OC(C)=O)c(OC)c1 (centres unmarked) | MTT | 24 h | > 50 µM |
| CCCC(CCC)C(=O)NCCNC(=O)[C@]1(C)[C@@H]2CC[C@]3(C)[C@H](C(=O)C=C4[C@@H]5[C@@H](C)[C@H](C)CC[C@]5(C)CC[C@]43C)[C@@]2(C)CC[C@H]1OC(C)=O | cell growth or viability, MTT | 48 h | > 30 µM |
| [Cl][Pd-2]1([Cl])[N+](=Cc2ccc[nH]2)Cc2cccc[n+]21 | cell growth or viability, MTT | 24 h | 20.9 µg/mL |
| C[C@]12CC/C(=N\OCCN3CCCC3)C=C1CCC1C2CC[C@]2(C)/C(=C/c3ccccn3)CCC12 (some centres unmarked) | cell growth or viability, MTT | 72 h | 77.1 µM |
| CC1=CC[C@]2(C(=O)O[C@H]3OC[C@@H](O)[C@@H](O)[C@@H]3OS(=O)(=O)O)CC[C@]3(C)C(CCC4[C@@]5(C)CC[C@H](O)C(C)(C)C5CC[C@]43C)C2[C@H]1C (some centres unmarked) | cell growth or viability, MTT |  | 5.52 µM |
| O=C1NN=C(c2ccccc2)/C1=N/Nc1ccccc1 | cell growth or viability, MTT |  | 1.22 µM |
| Cc1cc(=O)oc2cc(OCC(=O)NCC(=O)NCC(=O)NN)ccc12 | cell growth or viability, MTT |  | 63.7 µM |
| Cc1ccc(C(C)C)cc1.N=C(N)Nc1nc2ccccc2s1.[Cl-].[Cl][Ru+] | cell growth or viability, MTT | 24 h | 125 µM |
| Cc1nn(-c2ccc(S(=O)(=O)N[C@@H](CO)CC(C)C)cc2)c2nn3nnnc3nc12 | cell growth or viability, MTT | 72 h | 0.3 µM |
| CN1CCC2(CC1)C/C(=N\NC(=O)Nc1ccc(Cl)cc1)c1ccccc1O2 | cell growth or viability, MTT | 48 h | 2.56 µM |
| O=C1c2ccc3c4ccc5c6c(ccc(c7ccc(c2c37)C(=O)N1CCN1CCCCC1)c64)C(=O)N(CCN1CCCCC1)C5=O | cell growth or viability, SRB | 72 h | 84.6 µM |

Excerpt of the above:
| Structure (SMILES) | test | setting | IC50 |
| --- | --- | --- | --- |
| O=C([O][Ti+2][O]C(=O)c1ccc([P+]([Au-][Cl])(c2ccccc2)c2ccccc2)cc1)c1ccc([P+]([Au-][Cl])(c2ccccc2)c2ccccc2)cc1.c1cc[cH-]c1.c1cc[cH-]c1 | cell viability, XTT | 72 h | 37.7 µM |
| C=CCc1cc(OC)c(OC(C)=O)c(OC)c1 | MTT | 24 h | > 50 µM |
| Cc1ccc(C(C)C)cc1.N=C(N)Nc1nc2ccccc2s1.[Cl-].[Cl][Ru+] | cell growth or viability, MTT | 24 h | 125 µM |
| COC(=O)C[C@H]1Oc2ccccc2C(=O)[C@]1(C)[N+](=O)[O-] | cell growth or viability, SRB | 96 h | > 50 µM |
| O=C1NN=C(c2ccccc2)/C1=N/Nc1ccccc1 | cell growth or viability, MTT |  | 1.22 µM |
